Measured values collected from several papers.
Each numbered part is a random draw from the data of one study; scales do not carry over between parts.

Series 1
Target: Hepatocyte nuclear factor 3-alpha (Foxa1, Mus musculus, UniProt P35582, residues 1-468, full length assumed)
Sequence of UniProt P35582 (whole entry, looked up): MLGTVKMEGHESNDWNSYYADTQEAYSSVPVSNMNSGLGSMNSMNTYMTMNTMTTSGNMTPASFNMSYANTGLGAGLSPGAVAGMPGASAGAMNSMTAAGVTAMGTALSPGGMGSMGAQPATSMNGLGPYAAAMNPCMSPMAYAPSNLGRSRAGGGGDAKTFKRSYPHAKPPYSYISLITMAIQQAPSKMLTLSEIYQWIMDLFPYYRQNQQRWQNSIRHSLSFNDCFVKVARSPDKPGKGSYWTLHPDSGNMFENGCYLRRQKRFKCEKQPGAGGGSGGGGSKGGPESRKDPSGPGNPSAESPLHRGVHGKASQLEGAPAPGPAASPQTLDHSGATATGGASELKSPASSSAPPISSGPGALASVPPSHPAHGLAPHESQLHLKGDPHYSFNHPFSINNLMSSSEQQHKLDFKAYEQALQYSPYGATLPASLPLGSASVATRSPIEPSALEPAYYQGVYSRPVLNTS
Technique: EMSA with sequencing
Form: double-stranded DNA, one strand shown
Sample: in vitro
Tested at: 10 and 20 nM
Notes: whole designed probe, mean of two concentrations, ends assumed
Baseline: negative control set to 0
Reading: higher = stronger binding
Sequence	normalised bound fraction [ratio]
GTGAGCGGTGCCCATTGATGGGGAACATCTTCCCCCTCTTCCTTGCCCCACCAGCTCACCTTCCCGGGTTATTTGCAGATAGGAAAATAAATAAAGCCGGCATTCGTTAACCCTCTTCACGCGCATACTGCTGTTTGCTCTGGATCTAACATGGTCCTTTGGCGAGGCGTGGCTCCGGGAGAGCAAAGCACCGTGTCAGGGCCATGATCCGGGCTCGCCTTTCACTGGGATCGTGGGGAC	0.35
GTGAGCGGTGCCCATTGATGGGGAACATCTTCCCCCTCTTCCTTGCCCCACCAGCTCACCTTCCCGGGTTGTTTACTTTGAGGAAAATAAATAAAGCCGGCATTCGTTAACCCTCTTCTGGCGCAAACTGCACATTGGTCTGGATGAATCATGGTCCTTTGGCGACGCCAGGCTCCGGGAGAGCAAAGCACCGTGTCAGGGCCATGATCCGGGGTGGCCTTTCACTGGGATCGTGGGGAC	0.348
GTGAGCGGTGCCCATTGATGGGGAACGCCGTTGGTTCATGCTGTGGCTACTGCCAATTCTTTAAGTGTTCCCTCACCTCAAATCTTTGATGCACGAGGTCCAGCAGTCGTCACTACTAAGTCATCTCTGAGACATGTAAATGTTTGTGAAATGAGTAATAACCAGGATGGTACAATTAAGCTCCCCATGAGCTCCTCCCCACTGCCACCTCAGGCCTCATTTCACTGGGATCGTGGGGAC	-0.0449
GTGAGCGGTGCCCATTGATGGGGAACTAATAAGTAGTAATGCAATTATATTCTAAAATTCAAATGAAAATGTCTATTACTTTATACAACTATACATCTTTAAACACGAGCAATCTACAAAGTAATCTCGGAATCTAAACTTACTGATGTATTCACCAAAATTACCTCTCCCTGATATATTATTCTATACATTATAAATGCCTGAGAATTGACACTTTTATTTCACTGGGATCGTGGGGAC	-0.0591
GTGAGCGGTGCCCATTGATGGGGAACCACCGCGCTCGCACGGCTTTGTCCGTGCTACAAAGCAGCCTGTTAAACTATTGGAACTAATGCGCCGCAGCTGCGCGAGTGACTTCTGCTGCTTATGTACATAAAAAGTCCTGTAACCATCAGAGGGGGAGGGCTTGCCTGCTGCTGGGTTGTTTGGCTAGTCTTTCCATTTGCTTATTCCTGAATCCAAAGGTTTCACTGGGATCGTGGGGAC	0.33
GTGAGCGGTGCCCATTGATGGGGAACGGGAATTTTTATATAATACCAACTAATGAGTGTAAAACAAAGAAACAAAAAGAAACCAGTCCACAGAAACCAGAGTTGAGGCATGTGACTCAGTGTTGACTCTCAAGGTGATTACCCTGTGAAACTATGTACTGTTCTTGCATAACAATTTTTGGAATCTTTTGCTTTGAAATGCCTTCAGAATCAGTTCATGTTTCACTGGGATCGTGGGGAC	0.0643

Series 2
Target: RING finger protein unkempt homolog, zinc fingers 1-6, GST-SBP tag (UNK, Homo sapiens, UniProt Q9C0B0, residues 30-357)
Technique: RNA Bind-n-Seq
Form: RNA
Sample: in vitro
Tested at: not given
Notes: RNA with constant flanks, ends assumed
Baseline: input RNA pool
Reading: higher = stronger binding
Construct (chain): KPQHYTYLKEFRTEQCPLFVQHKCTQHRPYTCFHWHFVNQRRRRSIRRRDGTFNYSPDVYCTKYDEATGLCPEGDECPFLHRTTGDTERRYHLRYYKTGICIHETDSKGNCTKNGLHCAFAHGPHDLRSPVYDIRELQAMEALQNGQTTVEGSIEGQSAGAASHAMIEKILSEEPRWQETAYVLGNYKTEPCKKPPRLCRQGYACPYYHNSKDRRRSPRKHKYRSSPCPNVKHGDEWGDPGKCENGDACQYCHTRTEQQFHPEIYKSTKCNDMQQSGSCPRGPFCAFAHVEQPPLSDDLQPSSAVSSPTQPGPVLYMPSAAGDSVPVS
Sequence	bound/input enrichment [ratio]
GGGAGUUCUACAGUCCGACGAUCCUCCUGUCUCGAUUUACUCGAAAUGAGUUUAAUCUGGAAAGCAAGAGUACCAUUGGAGCCGAGUUUGCAACAAGAAGCAUCCAGGUUGAUGGGAAAACAAUAAAGGCACAGAUAUGGGACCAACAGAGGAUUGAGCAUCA	0.152
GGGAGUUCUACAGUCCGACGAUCCAGCAGUCAUCUCUCAGUAGGGACUCACAGGGUCAUGGGCGUGACCUGUCUGCGGCAGGAACCGGCCUUCUUGCUGCUGCUACCCAGUCUUUAAGUAUGCCAGCAUCUCUUGGAAGGAUGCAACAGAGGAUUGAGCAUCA	0.0554
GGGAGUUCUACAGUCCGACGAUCCACAUCAAAGCAAUUCAGAUUAAAGAACAACUUCUUGGUCAAGAAGAUUAUGAAGCCGCCCUUUCAGUGGGACAUCUGGCUUCUUUAUAUAAUUAUGACAUGAAUCAGUAUGAAAAUGCUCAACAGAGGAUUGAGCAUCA	0.165
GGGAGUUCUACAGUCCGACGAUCUAAAAAGUGUUUUGAAUUGUGUCUUAAUCUCUCCAUAUUCAACUAUUCUUCAUUUACAACAACCGUGACACCAGUAAUUAUGAGAGGCUGUCAUAUAUCAAAGCAGCUCAGGUGGGAUCACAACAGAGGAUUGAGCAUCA	0.607
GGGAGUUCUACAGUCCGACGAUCUUUGCAAAUUAUAUUGCCAGAGACACACGUCGCCUUGGCGCAACAAUACUAGACCGUAUACACCGUCUUCAAAUUAAUAGCAGUUUGAGCACCUACUCUCUCGUAGACUCUGUUGGAAAUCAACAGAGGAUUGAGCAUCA	0.565
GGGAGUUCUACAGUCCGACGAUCGAGGUACUUAUAAGACAUUUCCAAAGUCAAGUUAAUGAGCUGCAGAGUAAACAAGAGUCUCUCGCCGUUUCUGAAGUUCGAGAAGAAAUUCUACAGAAAGAGAUUACAAAACUCUUAGAACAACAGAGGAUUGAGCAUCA	0.15
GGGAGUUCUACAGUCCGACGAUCUAAGAAUUGGAAGAAUUGUGUAGGAGGCAGUAGUCAAAAAGUAGAAGCAGUUUGGAAGAGCCGUUACAAAUAUCAAGAGCCAGGUGGCUAAAAGGUGGAGCUAUAGGUCAUUGAAGCUCACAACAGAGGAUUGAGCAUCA	3.57
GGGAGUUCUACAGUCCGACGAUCGUGACAGACAUUAAAAUUUACCCUCAGAAAAGAACUGUAGCAGUGACAAUAAUCCCUUCUACCGUGAAUGCCAAUCAGAUAAAAGAGCUGGUUCCAGAACUCAGUUUAGAUACUGGGACACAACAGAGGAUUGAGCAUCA	0.284

Series 3
Target: Histone acetyltransferase KAT6A, both winged helices, GST fusion (KAT6A, Homo sapiens, UniProt Q92794, residues 1-181)
Technique: protein binding microarray
Form: double-stranded DNA, one strand shown
Sample: in vitro
Tested at: not given
Notes: 8-mer, flanks averaged, mean of 2 arrays, mostly near background
Baseline: not given
Reading: higher = stronger binding
Construct (chain): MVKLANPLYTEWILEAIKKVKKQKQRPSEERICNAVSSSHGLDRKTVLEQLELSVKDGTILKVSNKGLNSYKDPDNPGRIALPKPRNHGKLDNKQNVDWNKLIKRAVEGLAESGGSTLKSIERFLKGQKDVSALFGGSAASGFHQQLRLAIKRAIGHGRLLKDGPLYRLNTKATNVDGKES
Sequence	E-score
CGCTTACG	0.295
ATAGGAGG	-0.0665
ATCGGGGG	0.0117
AGGCACGG	0.168
CCGCCTCA	0.222
CTTGGTGA	-0.107
AGGCTAGA	-0.142
ATCGAACG	0.113
GACTAAAA	-0.0619
ATGACTTG	-0.0176
TAGAGTAA	-0.0863
GGTATCCA	0.0113
AATTGGCG	0.0389
AGACCTCC	-0.0887
CAACTTAA	-0.101
CCCCCCCA	-0.227
CGTAGCCA	0.0879
GACGAATC	-0.0259

Series 4
Target: RNA binding protein fox-1 homolog 2, RRM domain, GST-SBP tag (RBFOX2, Homo sapiens, UniProt O43251-10, residues 100-194)
Technique: RNA Bind-n-Seq
Form: RNA
Sample: in vitro
Tested at: 365 nM
Notes: natural RNA segment, single round, ends assumed
Baseline: no-protein control
Reading: higher = stronger binding
Target sequence (chain): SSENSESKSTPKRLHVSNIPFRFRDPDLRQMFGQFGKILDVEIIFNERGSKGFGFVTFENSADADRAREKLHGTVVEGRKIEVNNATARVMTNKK
Sequence	RBNS enrichment (R)
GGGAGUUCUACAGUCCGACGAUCCUCCCGGGGCCCCCACUGUGGAGAUAAGAAGGGGAUGGAAUGGGGGAAGAGGAGGAGCAGGAGGCCCUCAUCCUUCUGCUGCCCUGGGGUUGGGGCCUCACCCCUCUGGAUGGAAUUCUCGGGUGCCAA	0.935
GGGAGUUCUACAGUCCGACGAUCGCCUGGCUGCCAGGCAACAGGAAGAAAGGCGUAUGGGAAAGUAGGAUGGAGACUGGAACCAUCCUACUGCUGCCAGCUGGAAGCUUUUCUCAGAGAGCCAAAGCUGAAUUUGGAAUUCUCGGGUGCCAA	0.518
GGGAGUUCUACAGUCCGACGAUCGCAGCCGGCCUUGCAGAGCCUCCUCAGCUUGGGGGGCUGGGGACCCAGUCAGCUGAGAGGUCCUCUAGGCUCUACUUAGGCAUAUGUGUACCCAAAAAAAAAAUUUUUUUUGGAAUUCUCGGGUGCCAA	0.519
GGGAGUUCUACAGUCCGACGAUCCUCAGUUUUUAUGAACUGUUGUAUCCUGUUAAUGCAUAUUGCUCUGUGACUCCAGUAUAUCUUACCUGUACUGACCAAACCUAAAUAAAGAUUUUUAUUGUAACUCCUUAUGGAAUUCUCGGGUGCCAA	1.92
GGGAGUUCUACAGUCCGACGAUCCUUCUGCCUCCCAAUCAAGGAAGCUCCAUGCUCAGGCUCUCAGCUCUCGGGCCAGUGCUCUGCUCUGUCCAGGGUAGGUAAUACUGGGAGACUCCUGUCUUUUACCCUCCUGGAAUUCUCGGGUGCCAA	0.285
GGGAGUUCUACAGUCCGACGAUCCUGGCUCCAUGAUUCUCUGAGUGGUGGUUCCUUUGCACCCUGUAGAUGUUCUAGGAUAGUUGAUGCAUGUUACUAAAUUACGUAUGCAAGUCUGUGAGUGCGUCUGAGGGUGGAAUUCUCGGGUGCCAA	5.99
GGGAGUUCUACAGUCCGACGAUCGCUUCUAUAAUGAGGCACAUAUUAAUACAGUUUUUAUAUGGUAUCUAUGAAAGAGUUCACUUCAUAGAGAAUAAUACUUGAGCAAAUGUAUCCAAGAAAGCAAGCAAAUGUGGAAUUCUCGGGUGCCAA	0.474
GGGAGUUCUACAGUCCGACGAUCAUCCAUGUGUUGAUUUCCUGUUUCCUCCUCCCCCGCCUCUUCCAGUUCAAAGGAGUCUGCAAUUGGAACUGCUGAUUUUCGGUGGGUUUUGUAGUUGAUUUUUCCAAGAGUGGAAUUCUCGGGUGCCAA	0.233
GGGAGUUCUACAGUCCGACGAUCCCACUUUGAGAGAUGGCUUGUGUUAGGCUGAAACUGAUAGAAACGUUAACUGCUGCAGCUCUCUUUGGGCCACCCUAGUGUUUGUGAUUCAUGCUUGAAGUAACCUUGCCUGGAAUUCUCGGGUGCCAA	1.54
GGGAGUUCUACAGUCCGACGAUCAGAAAAAAUAUUUAUAAUAAAAUCAUUUGUAGGAAGAUGUUUAAGAAGUUAGGAAAUUCAGUUUGUCUCUUACUUCUUGAAAAUGGCAGGGAGCAGCUGCAGCCCCUGACUGGAAUUCUCGGGUGCCAA	0.729
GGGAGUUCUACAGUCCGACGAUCACCCCAUAUUGGAAAAUGAAUGUCCUUUAGUAUUCCUGAAGCUAAAGCUUGGGUGUCUCCUCCCAGCUCUUGUUACAGUGUUUCUGACUGCUUCACCCUUCACAGAUUUAUGGAAUUCUCGGGUGCCAA	0.539
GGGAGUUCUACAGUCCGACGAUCCCCAACUCCCGAAUCCUCUCUUGAGUGUGGACCUCAACACCUUGAGCCCUAGUAAAGGAACUAUGCAAAUGCAGGCCACUCUCCCCACCACGUCUGUGCCCUGCACUGUCUGGAAUUCUCGGGUGCCAA	0.353

Excerpt of the above (series 3):
Sequence	E-score
ATCGGGGG	0.0117
AGGCACGG	0.168
CCGCCTCA	0.222
CTTGGTGA	-0.107
AGGCTAGA	-0.142
ATCGAACG	0.113
GACTAAAA	-0.0619
